Assay results collected from several papers.
“And” joins repeats or separate records; there may be more than shown.
TDP1: Tyrosyl-DNA phosphodiesterase 1 (TDP1, Homo sapiens, UniProt Q9NUW8)
Chain of UniProt Q9NUW8 (whole entry, looked up): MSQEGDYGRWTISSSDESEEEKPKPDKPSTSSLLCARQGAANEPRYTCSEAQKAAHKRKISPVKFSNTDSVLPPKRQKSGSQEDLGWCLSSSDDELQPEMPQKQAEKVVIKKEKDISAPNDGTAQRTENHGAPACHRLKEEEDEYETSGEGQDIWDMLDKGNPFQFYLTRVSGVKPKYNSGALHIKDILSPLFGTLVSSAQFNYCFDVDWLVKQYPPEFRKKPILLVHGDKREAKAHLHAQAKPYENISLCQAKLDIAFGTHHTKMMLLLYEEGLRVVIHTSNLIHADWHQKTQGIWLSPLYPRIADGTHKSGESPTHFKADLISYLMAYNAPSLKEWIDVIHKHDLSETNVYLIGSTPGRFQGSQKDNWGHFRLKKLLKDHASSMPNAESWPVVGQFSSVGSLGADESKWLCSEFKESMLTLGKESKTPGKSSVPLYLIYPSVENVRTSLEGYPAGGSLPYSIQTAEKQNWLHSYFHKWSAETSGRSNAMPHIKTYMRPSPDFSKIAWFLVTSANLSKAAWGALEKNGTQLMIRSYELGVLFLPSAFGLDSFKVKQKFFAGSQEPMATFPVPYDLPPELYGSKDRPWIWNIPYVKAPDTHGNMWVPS
STK3: Serine/threonine-protein kinase 3 (STK3, Homo sapiens, UniProt Q13188)

SMILES	target	test	system	setting	scale	endpoint	result
Cc1cncc(N2CCC(C=NOCc3ccc4nc(-c5ccccc5)c(Nc5ccc(C(=O)O)cc5)n4c3)CC2)n1	TDP1	enzyme activity, inhibitor		100 µM, unpurified compound		inhibition	95.4%
O=C=[N][Ru-4]123([n]4c5ccc(O)cc5c5c6c(c7cc(F)c[n+]1c7c54)C(=O)NC6=O)[S+]1CC[S+]2CC[S+]3CC1 (stereo not shown)	STK3	enzyme activity		100 nM, human enzyme, together with: 10 µM ATP	baseline: untreated	remaining activity	50%
C=CCn1cc(C=NOCc2ccc3nc(-c4ccccc4)c(Nc4ccc(C(=O)O)cc4)n3c2)c2ccccc21	TDP1	enzyme activity, inhibitor		100 µM, unpurified compound		inhibition	22.2%
CNC(=O)C[C@H](Cc1ccc(C#N)cc1)NC(=O)c1cc(-c2ccc(CN[C@H](C)c3ccc(C)cc3)o2)ccc1Cl	STK3	enzyme activity, inhibitor		1 µM		activity vs control	101%
Cc1cnc2nc1Nc1cccc(c1)COC/C=C/COCc1cc(ccc1OCCN1CCOCC1)N2	STK3	binding, competition with immobilised ligand		0.1 µM		remaining binding	92%
C=CC(=O)Nc1cccc(-c2cnc3[nH]cc(C(=O)NC(C)(C)C)c3n2)c1	STK3	kinase activity		0.1 µM		inhibition	73% and 74%
Nc1ncc(-c2cc(-c3cnn(CC(F)(F)F)c3)ncc2F)nc1C(=O)NC1CNCC(F)C1 (stereo not shown)	STK3	enzyme activity		1 µM	baseline: DMSO control	remaining activity	83.2%
COc1c(Cl)cccc1Nc1c(-c2ccncc2C#C[C@@]2(C)CCCN2C(=O)/C=C/CN(C)C)[nH]c2c1C(=O)NCC2	STK3	binding, competition with immobilised ligand		3 µM		remaining binding	92%
Cc1cccc(-c2ccc3nc(NC(=O)C4CCOCC4)nn3c2)c1	STK3	enzyme activity, Dundee kinase panel		10 µM		remaining activity	94%
CN1CCN(Cc2ccc(-c3ccc(CO[C@H]4CCC[C@@H]4NC(=O)c4cc(-c5cnn(C)c5)cnc4N)cc3)cc2)CC1	STK3	enzyme activity, inhibitor		0.1 µM		inhibition	3%
O=c1c(-c2ccc(Cl)c(CN3CCOCC3)c2)coc2cc(O)ccc12	STK3	enzyme activity, inhibitor		1 µM		remaining activity	110%
COc1cc(Nc2nc(C)cc(-c3cnn4nc(OC)ccc34)n2)cc(C(F)(F)F)c1	STK3	inhibitor		1 µM, MST2	baseline: control	remaining activity	100%
Cc1ccc(C(=O)Nc2ccc(CN3CCN(C)CC3)c(C(F)(F)F)c2)cc1C#Cc1cnc2cccnn12	STK3	target engagement, NanoBRET	human cells			Hill slope	1.33
COc1ccc(NC(=O)Nc2ccc3c(c2)C(=O)N(C(C)CO)CC(C)C(CN(C)Cc2ccc4c(c2)OCO4)O3)cc1 (stereo not shown)	STK3	kinase activity, KinaseProfiler		0.03 µM, species human	baseline: control	remaining activity	87%
Cc1cccc(O[C@H]2CCC[C@@H](C(C)CNCc3ccncc3)C2)c1 (relative stereo)	STK3	enzyme activity, inhibitor		10 µM		inhibition	0%
NC(=O)[C@@H](O)C[C@H]1CCc2sc3ncnc(O[C@H]4CC[C@H](N5CCOCC5)CC4)c3c21	STK3	enzyme activity, inhibitor		10 µM		inhibition	-1%

Excerpt of the above:
SMILES	target	test	system	setting	scale	endpoint	result
NC(=O)[C@@H](O)C[C@H]1CCc2sc3ncnc(O[C@H]4CC[C@H](N5CCOCC5)CC4)c3c21	STK3	enzyme activity, inhibitor		10 µM		inhibition	-1%
